Experimental data pooled from the literature.
Each numbered part is a random draw from the data of one study; scales do not carry over between parts. Changes are numbered by the printed parent chain.

Series 1
Target: Fragile X messenger ribonucleoprotein 1, C-terminal low-complexity region (Fmr1, Mus musculus, UniProt P35922)
Method: RNA Bind-n-Seq
Form: RNA
Sample: in vitro
Concentration: 200 nM
Notes: whole 134-nt RNA, ends assumed
With: 150 mM LiCl
Reference: input library
Direction: higher = stronger binding
Endpoint: log2 enrichment
Each molecule: 7-deaza-guanosine replaces G
Constant ends, left off below: GGGAGUUCUACAGUCCGACGAUC … UGGAAUUCUCGGGUGUCAAGG
Oligonucleotide = UGGCCCUGGUGGCAUGCGGGGAGGUAGAGGUGGCCUCAUGGAUCGUGGUGGUCCCGGUGGAAUGUUCAGAGGUGGCCGUGGUGGAGACAG; result = -0.294
Oligonucleotide = UCAAGUCCUGUGCUACACAUCGUAUGUACCGAAUCGGUUUUUGGAGGAAAAAGGAAAGUAUUAUGUUACGCCGUUCGGAUCUGCACUUCC; result = -0.705
Oligonucleotide = CCUGUGCUACACAUCGUAUGUACCGAAUCGGGGAAAAAAGGAAAAAAGGGGAAAAAAGGGGAAAGUAUUAUGUUACGCCGUUCGGAUCUG; result = 0.846
Oligonucleotide = UGGGGAGACUACGAUGACAGCGCCUUCAUGGAGCCCAGGUACCACGUCCGUGGAGAAGAUCUGGACAAGCUCCACAGAGCUGCCUGGUGG; result = -2.59
Oligonucleotide = UACUCUCUCGGGGCUGGAAGCUUCCUGACUGAAGAUCUCUCUGCACUUGGGGUUCUUUCUAGAACAUUUUCUAGUCCCCCAACACCCUUU; result = -0.515
Oligonucleotide = AGUCCUGUGCUACACAUCGUAUGUACCGAAUCGGGCCCCCGGCCCCCGGGCCCCCGGAAAGUAUUAUGUUACGCCGUUCGGAUCUGCACU; result = -2.19
Oligonucleotide = GCAGGAAGUAAAAACAAAUGGAAAUGCUUCGGAUAGUGGCAGGGGUGGGGGUUGCUAAGGAAAAGGUGGGAUGGGAGUGGGUAAAGAGUU; result = 1.35

Series 2
Target: CCND2, cyclin fold, Cln2 fusion (human)
Method: yeast growth competition, sequencing
Sample: yeast
Notes: weak parent motif
Reference: not given
Direction: higher = stronger binding
Endpoint: normalised enrichment score
Starting sequence: MASTL docking peptide (human); PMIAKNLMCELDE
Change = PMKAKNLMCELDE [I3K]; result = -0.154
Change = PMIAKNLMCEDDE [L11D]; result = 0.0638
Change = PMIAANLMCELDE [K5A]; result = -0.0269
Change = PMIAKFLMCELDE [N6F]; result = -0.0967
Change = PMIAKNLMPELDE [C9P]; result = 0.432
Change = PMIAENLMCELDE [K5E]; result = 0.135
Change = PYIAKNLMCELDE [M2Y]; result = 0.325

Series 3
Target: ABI1, truncated, D143A, DHFR fusion (Arabidopsis thaliana)
Method: DHFR PCA, deep sequencing
Sample: yeast
Notes: methotrexate growth selection, single substitutions
With: (+)-ABA 58 µM
Reference: wild-type fitted maximum
Direction: higher = stronger binding
Endpoint: relative binding score
Starting sequence: PYL1, truncated, DHFR fusion (Arabidopsis thaliana); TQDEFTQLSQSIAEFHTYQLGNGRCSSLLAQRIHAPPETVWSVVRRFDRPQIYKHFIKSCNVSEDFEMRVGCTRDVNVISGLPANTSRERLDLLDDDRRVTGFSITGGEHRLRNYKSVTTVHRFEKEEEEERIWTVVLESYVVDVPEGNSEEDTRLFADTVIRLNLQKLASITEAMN; partner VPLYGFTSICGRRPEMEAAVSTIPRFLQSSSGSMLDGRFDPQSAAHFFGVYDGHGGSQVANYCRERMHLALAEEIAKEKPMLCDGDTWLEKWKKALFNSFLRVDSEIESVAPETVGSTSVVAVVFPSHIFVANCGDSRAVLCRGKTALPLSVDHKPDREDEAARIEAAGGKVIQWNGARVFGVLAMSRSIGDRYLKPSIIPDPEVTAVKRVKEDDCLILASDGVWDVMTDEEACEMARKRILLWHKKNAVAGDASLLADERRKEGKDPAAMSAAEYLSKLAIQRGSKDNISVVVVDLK
Change = E64W; result = 72.5%
Change = R113N; result = 96.2%
Change = D48A; result = 39.3%
Change = V44D; result = -27.4%
Change = V136D; result = 19.7%
Change = L164V; result = 85.5%
Change = L91F; result = -0.761%
Change = H16L; result = -3.97%
Change = E151K; result = 82.8%

Single results of other studies
Molecule = PhoQ, residues 284 288 289 292 302 303 SSYNSA; target = PhoP, residues 12 14 15 18 19 YHFSH (Escherichia coli, UniProt P23836); test = Sort-seq, item: YFP reporter; system = E. coli; setting = PhoQ-PhoP variant library, with: 10 µM Mg2+; scale = reference: high Mg2+ state, higher = stronger signaling; endpoint = fold induction; result = 8.64
